Measurements of several laboratories.
Lines come from different studies, so protocols differ. Several values in a cell are separate wells, animals, samples, runs or records. Numbers after ± are the reported error.

COc1ccc2c(Cc3ccccc3F)c3n(c(=O)c2c1OC)CCc1cc2c(cc1-3)OCO2
remaining compound (human liver microsomes; 10 µM, 30 min, pH 7.4, together with: microsomes 0.5 mg/mL): 68.2 ± 6.1%

COc1cc2c3cc1Oc1c(OC)c(OC)cc4c1[C@@H](Cc1ccc(O)c(c1)Oc1ccc(cc1)C[C@@H]3N(C)CC2)N(C)CC4
remaining compound (mouse plasma, K3EDTA; 1 h, on ice): 94%

NC(=O)c1ccc(-c2cc(NCCCN3CCCCC3)c3ccccc3n2)cc1
remaining compound (human liver microsomes; 1 h): 100%

OCc1nc2ccc(NCc3ccc(C(F)(F)F)cc3)cc2[nH]1
remaining compound (human liver S9; 1 µM, 90 min, pH 7.4): > 80%

CNc1cc[n+](CCNC(=O)c2ccn3c(-c4c(C)noc4C)cnc3c2)cc1.[Cl-]
remaining compound (aqueous buffer; initial, pH 7): 100 % peak area

CSc1ncc(Br)c(C(=O)N[C@@H](CCC(=O)O)C(=O)N[C@@H](Cc2ccc3ccccc3c2)C(=O)N[C@@H](CC(C)C)C(=O)N[C@@H]2C[C@H]2c2ccccc2)n1
remaining compound (pooled human plasma; 15 min, 37 °C): 89.2%

C#CCN(C)Cc1ccccc1
remaining compound (aqueous buffer; 0 days, 37 °C): 97%

N#Cc1ccc(Nc2nc(N)cc(Oc3c(F)cc(-c4ccc(C#N)cc4)cc3F)n2)cc1
remaining compound (monkey plasma; 1 µM, 0.00 h, pH 7.4, 37 °C): 100%

CC(C)=CCC[C@](C)(O[C@@H]1O[C@H](CO)[C@@H](O)[C@H](O)[C@H]1O)[C@H]1CC[C@]2(C)[C@@H]1[C@H](O)C[C@@H]1[C@@]3(C)CC[C@H](O[C@@H]4O[C@H](CO)[C@@H](O)[C@H](O)[C@H]4O[C@@H]4O[C@H](CO)[C@@H](O)[C@H](O)[C@H]4O)C(C)(C)[C@@H]3CC[C@]12C
remaining compound (rat plasma; 1 ng/mL, 24 h, room temperature): 86.1 ± 3.6%

CO[C@@H](C[C@H]1C(C)=CC[C@@H]2[C@]3(C)C[C@H](O[C@@H]4O[C@@H](C)[C@H](OC(=O)c5cccc(O)c5)[C@@H](O[C@@H]5O[C@H](CO)[C@@H](O)[C@H](O)[C@H]5NC(C)=O)[C@H]4O)[C@@H](O)C(C)(C)[C@H]3CC[C@]21C)[C@H](N)C(=O)O.O=C(O)C(F)(F)F
remaining compound (simulated gastric fluid with pepsin; 1 µM, 240 min, pH 1.2): 103%

O=Cc1cc2ccccc2cc1C=O
remaining compound (HEPES buffer; 1 mM, 20 h, pH 7.4, 10% acetonitrile): 60%

Cc1cc2ccccc2n1CCNC(=O)c1ccc(N2CCCCC2)cc1
remaining compound (mouse liver microsomes; 60 min): > 7%

O=C(N1CCCCC1)C12CC(c3ccccc3)(C1)C2
remaining compound (pooled human liver microsomes; 2 µM, 40 min, without NADPH): 105%

N=C(N)Nc1cccc(C(=O)NCC(=O)NC[C@H](NC(=O)c2c(Cl)cc(-c3ccc4cn[nH]c4c3)cc2Cl)C(=O)O)c1
remaining compound (mouse liver microsomes; 45 min): 112%

CN1CCN(C(=O)[C@H](CCCN[C@@H]2C[C@H]2c2ccc(F)cc2)NC(=O)c2ccc(-n3ccnn3)cc2)CC1
remaining compound (aqueous buffer; 4 days, 37 °C): 95%

c1ccc(-c2cc(NCCCN3CCCCC3)c3ccccc3n2)cc1
remaining compound (human plasma; 1 h): 95.5%

COc1ccc2c(Cc3ccccc3F)c3[n+](cc2c1OC)CCc1cc2c(cc1-3)OCO2.[Br-]
remaining compound (human liver microsomes; 10 µM, 30 min, pH 7.4, together with: microsomes 0.5 mg/mL): 45.3 ± 8.7%

Cc1cc(Oc2ncccc2CN2CCN(c3ncccc3C(F)(F)F)CC2)ccc1-c1c(C)c(=O)[nH]c(=O)n1C
remaining compound (rat plasma; 1 µM, 2 h): 87%

Fc1ccc(N2CCNCC2COc2ccc3ccccc3c2)cc1 (centres unmarked)
remaining compound (mouse liver microsomes; 90 min): 64 ± 2%

CC[N+]1(C)CCN(c2ccc(NC(=O)c3cccc(C)n3)cc2)CC1
remaining compound (pooled BALB/c mouse plasma; 1 µM, 1.5 h): 102%

O=C(Oc1coc(CSc2ncccn2)cc1=O)c1ccc([N+](=O)[O-])cc1
remaining compound (RPMI with 10% FBS; 100 µM, 2 day): < 10%

C[C@]1(C(=O)[C@H](Cc2ccccc2)NC(=O)[C@@H]2Cc3ccc(cc3)OCCCCCCCC(=O)N3CCC[C@H]3C(=O)N2)CO1
remaining compound (human liver microsomes; 60 min): not detected

C#Cc1ccc(C(F)(F)F)cc1C=O
remaining compound (HEPES buffer; 1 mM, 20 h, pH 7.4, 10% acetonitrile): 42%

C=CC(=O)N1CCC(C(=O)NCC(=O)N2CCN(c3nc(-c4cnc(N)nc4C(F)F)nc(N4CCOCC4)n3)CC2)CC1
remaining compound (microsomes, rat liver, male, Sprague-Dawley; 1 µM, 10 min, 0.5 mg/mL microsomal protein, together with: NADPH): 94%

CCOC(=O)[C@H](CCc1ccccc1)N[C@@H](C)C(=O)N1CCC[C@H]1C(=O)O
remaining compound (human plasma; 10 µM, 120 min): 90%

NC(=O)c1ccccc1NC(=O)c1ccc(-c2ccccc2)cc1
remaining compound (human plasma; 2 µM, 60 min, 37 °C): 105%

COc1ccc(-c2cc(NCCCN3CCCCC3)c3ccccc3n2)cc1
remaining compound (human liver microsomes; 1 h): 86.7%

C=CC(=O)N1CCC(C(=O)N(C)CC(=O)N2CCN(c3nc(-c4cnc(N)nc4C(F)F)nc(N4CCOCC4)n3)CC2)CC1
remaining compound (microsomes, rat liver, male, Sprague-Dawley; 1 µM, 60 min, without NADPH, 0.5 mg/mL microsomal protein): 92.7%

COc1ccc(-c2c(-c3ccc(C#N)c(F)c3)nc(N3CCC(N)CC3)n(C)c2=O)cc1F
remaining compound (aqueous buffer; 4 days, 37 °C): 98%

CC(C)=CC(=O)CCC(=O)N1CCN(Cc2cc3nc(-c4cccc5[nH]ncc45)nc(N4CCOCC4)c3s2)CC1
remaining compound (microsomes, rat liver, male, Sprague-Dawley; 1 µM, 60 min, without NADPH, 0.5 mg/mL microsomal protein): 45.3% and 45%

CC(C)=CCC[C@](C)(O[C@@H]1O[C@H](CO[C@@H]2O[C@H](CO)[C@@H](O)[C@H](O)[C@H]2O)[C@@H](O)[C@H](O)[C@H]1O)[C@H]1CC[C@]2(C)[C@@H]1[C@H](O)C[C@@H]1[C@@]3(C)CC[C@H](O[C@@H]4O[C@H](CO)[C@@H](O)[C@H](O)[C@H]4O[C@@H]4O[C@H](CO)[C@@H](O)[C@H](O)[C@H]4O)C(C)(C)[C@@H]3CC[C@]12C
remaining compound (rat plasma; 25 ng/mL, 24 h, room temperature): 102 ± 1.4%

COc1ccc2[nH]c([S+]([O-])Cc3ncc(C)c(OC)c3C)nc2c1 (centres unmarked)
remaining compound (simulated gastric fluid with pepsin; 1 µM, 0 min, pH 1.2): 100%

Cc1c(Br)cc(NC(=O)CS(=O)(=O)O)cc1Br
remaining compound (mouse liver microsomes; 4 µM, 30 min): 0%

CCOc1ccc2ccc(=O)oc2c1
remaining compound (human liver microsomes; 1 µM, 60 min, pH 7.4, together with: without cofactors): 106%

CC(C)[N+](C)(CCOC(=O)C1c2ccccc2Oc2ccccc21)C(C)C
remaining compound (pooled human plasma; 0 min, 37 °C): 100%

Cn1cncc1-c1c(F)cncc1NC(=O)c1c(N)nn2cc(F)cnc12
remaining compound (human EDTA plasma; 4000 ng/mL, 6 h, room temperature, high QC): 100%

O=C(O)Cc1ccccc1Nc1c(Cl)cccc1Cl
remaining compound (human liver microsomes; 1 µM, 60 min, pH 7.4): 2%

C/C=C/C(=O)Nc1ccc(-n2nc3c(=O)[nH]nc(N)c3c2-c2oc3ccc(C)cc3c2C)cc1
remaining compound (BALB/c nude mouse whole blood; 1 µM, 1 h, 37 °C): 95.7%

CC[C@H](C)C(=O)O[C@H]1C[C@@H](C)C=C2C=C[C@H](C)[C@H](CC[C@@H]3C[C@@H](O)CC(=O)O3)[C@H]21
remaining compound (Beagle dog whole blood; 5 µM, 0 min): 100%

Cc1cc2ccccc2n1CCNC(=O)c1ccc(N2CCC(C(=O)O)CC2)cc1
remaining compound (mouse liver microsomes; 60 min): > 50%

CSc1nccc(C(=O)N[C@@H](CCC(=O)O)C(=O)N[C@@H](Cc2ccc3ccccc3c2)C(=O)N[C@@H](CC(C)C)C(=O)NC2CC2c2ccccc2)n1 (some centres unmarked)
remaining compound (pooled human plasma; 60 min, 37 °C): 110%
